Published values collected from several papers.
Protocols differ between the studies behind these lines. Values joined by “and” are separate records of one study, mostly repeats; a detail may differ. ± gives the spread as reported.
HDAC2: Histone deacetylase 2 (HDAC2, Homo sapiens, UniProt Q92769)
UniProt Q92769, sequence (whole entry, looked up): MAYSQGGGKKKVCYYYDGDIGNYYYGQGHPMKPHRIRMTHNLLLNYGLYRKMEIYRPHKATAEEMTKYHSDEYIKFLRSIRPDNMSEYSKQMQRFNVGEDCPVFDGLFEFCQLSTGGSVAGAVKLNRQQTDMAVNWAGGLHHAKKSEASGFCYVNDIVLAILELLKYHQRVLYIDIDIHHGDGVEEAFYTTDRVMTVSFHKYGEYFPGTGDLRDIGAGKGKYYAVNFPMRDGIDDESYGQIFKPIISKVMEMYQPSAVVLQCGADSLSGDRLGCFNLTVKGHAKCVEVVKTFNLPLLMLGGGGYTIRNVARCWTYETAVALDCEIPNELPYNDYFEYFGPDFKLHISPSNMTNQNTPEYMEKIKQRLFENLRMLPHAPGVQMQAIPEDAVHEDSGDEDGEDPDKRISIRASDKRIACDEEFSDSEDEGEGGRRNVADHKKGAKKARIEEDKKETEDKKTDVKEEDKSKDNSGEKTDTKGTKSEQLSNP
UniProt Q96RJ0, sequence (whole entry, looked up): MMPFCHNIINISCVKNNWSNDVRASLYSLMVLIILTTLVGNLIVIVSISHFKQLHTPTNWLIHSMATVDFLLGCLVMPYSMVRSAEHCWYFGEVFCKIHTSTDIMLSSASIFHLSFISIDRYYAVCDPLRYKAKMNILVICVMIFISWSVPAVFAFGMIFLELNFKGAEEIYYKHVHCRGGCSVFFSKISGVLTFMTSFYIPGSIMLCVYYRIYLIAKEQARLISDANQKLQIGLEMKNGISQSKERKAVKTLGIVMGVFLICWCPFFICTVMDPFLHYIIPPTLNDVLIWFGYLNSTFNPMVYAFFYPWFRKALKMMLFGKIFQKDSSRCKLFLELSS
UniProt P41020, sequence (whole entry, looked up): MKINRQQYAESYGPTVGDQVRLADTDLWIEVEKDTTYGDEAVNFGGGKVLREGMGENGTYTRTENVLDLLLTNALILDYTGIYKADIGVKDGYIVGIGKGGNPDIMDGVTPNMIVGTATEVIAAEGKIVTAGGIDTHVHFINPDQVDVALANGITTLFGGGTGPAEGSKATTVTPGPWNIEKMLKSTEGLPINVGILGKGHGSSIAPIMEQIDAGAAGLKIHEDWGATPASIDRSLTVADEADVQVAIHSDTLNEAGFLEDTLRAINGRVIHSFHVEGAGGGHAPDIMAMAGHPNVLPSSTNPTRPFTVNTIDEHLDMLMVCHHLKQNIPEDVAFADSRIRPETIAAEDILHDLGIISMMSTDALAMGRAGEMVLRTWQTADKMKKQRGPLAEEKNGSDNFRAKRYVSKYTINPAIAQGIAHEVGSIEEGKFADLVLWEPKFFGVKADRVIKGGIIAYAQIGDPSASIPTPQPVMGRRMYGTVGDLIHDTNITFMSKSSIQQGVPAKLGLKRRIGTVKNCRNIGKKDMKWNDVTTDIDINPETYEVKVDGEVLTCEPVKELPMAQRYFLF
UniProt P04228, sequence (whole entry, looked up): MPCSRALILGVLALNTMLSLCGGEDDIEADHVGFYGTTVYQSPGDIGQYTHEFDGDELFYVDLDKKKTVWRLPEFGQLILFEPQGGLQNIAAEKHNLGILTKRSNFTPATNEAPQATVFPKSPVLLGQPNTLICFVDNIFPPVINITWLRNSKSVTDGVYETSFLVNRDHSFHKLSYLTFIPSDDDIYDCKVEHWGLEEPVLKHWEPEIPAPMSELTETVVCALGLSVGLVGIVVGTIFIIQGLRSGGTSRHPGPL
UniProt P08246, sequence (whole entry, looked up): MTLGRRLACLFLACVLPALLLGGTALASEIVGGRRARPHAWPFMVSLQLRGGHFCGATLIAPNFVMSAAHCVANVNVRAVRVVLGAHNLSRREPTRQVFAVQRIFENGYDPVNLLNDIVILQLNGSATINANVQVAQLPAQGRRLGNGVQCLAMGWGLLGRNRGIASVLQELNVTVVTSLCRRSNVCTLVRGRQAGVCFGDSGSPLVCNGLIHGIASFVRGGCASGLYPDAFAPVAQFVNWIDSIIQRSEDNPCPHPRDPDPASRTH
UniProt P15056, sequence (whole entry, unmodified, looked up): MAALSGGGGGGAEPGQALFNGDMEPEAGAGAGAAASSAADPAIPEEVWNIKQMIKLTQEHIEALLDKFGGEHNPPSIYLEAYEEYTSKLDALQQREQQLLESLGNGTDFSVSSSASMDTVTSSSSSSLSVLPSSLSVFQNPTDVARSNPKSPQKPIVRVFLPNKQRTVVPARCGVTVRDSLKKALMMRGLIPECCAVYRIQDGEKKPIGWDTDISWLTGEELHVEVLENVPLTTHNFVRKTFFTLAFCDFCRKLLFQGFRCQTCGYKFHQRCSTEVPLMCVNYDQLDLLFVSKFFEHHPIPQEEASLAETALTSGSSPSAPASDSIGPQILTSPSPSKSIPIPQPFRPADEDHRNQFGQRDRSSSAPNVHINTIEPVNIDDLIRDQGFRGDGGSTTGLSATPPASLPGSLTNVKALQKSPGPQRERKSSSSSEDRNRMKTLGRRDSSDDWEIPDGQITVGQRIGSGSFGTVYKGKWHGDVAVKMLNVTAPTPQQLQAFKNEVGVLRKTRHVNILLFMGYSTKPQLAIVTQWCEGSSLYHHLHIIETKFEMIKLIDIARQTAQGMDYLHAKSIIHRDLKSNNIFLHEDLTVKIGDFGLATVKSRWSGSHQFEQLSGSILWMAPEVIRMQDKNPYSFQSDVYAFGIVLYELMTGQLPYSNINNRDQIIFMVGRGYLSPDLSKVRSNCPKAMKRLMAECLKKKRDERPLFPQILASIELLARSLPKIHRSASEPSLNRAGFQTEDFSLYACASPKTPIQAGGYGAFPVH
UniProt Q16706, sequence (whole entry, looked up): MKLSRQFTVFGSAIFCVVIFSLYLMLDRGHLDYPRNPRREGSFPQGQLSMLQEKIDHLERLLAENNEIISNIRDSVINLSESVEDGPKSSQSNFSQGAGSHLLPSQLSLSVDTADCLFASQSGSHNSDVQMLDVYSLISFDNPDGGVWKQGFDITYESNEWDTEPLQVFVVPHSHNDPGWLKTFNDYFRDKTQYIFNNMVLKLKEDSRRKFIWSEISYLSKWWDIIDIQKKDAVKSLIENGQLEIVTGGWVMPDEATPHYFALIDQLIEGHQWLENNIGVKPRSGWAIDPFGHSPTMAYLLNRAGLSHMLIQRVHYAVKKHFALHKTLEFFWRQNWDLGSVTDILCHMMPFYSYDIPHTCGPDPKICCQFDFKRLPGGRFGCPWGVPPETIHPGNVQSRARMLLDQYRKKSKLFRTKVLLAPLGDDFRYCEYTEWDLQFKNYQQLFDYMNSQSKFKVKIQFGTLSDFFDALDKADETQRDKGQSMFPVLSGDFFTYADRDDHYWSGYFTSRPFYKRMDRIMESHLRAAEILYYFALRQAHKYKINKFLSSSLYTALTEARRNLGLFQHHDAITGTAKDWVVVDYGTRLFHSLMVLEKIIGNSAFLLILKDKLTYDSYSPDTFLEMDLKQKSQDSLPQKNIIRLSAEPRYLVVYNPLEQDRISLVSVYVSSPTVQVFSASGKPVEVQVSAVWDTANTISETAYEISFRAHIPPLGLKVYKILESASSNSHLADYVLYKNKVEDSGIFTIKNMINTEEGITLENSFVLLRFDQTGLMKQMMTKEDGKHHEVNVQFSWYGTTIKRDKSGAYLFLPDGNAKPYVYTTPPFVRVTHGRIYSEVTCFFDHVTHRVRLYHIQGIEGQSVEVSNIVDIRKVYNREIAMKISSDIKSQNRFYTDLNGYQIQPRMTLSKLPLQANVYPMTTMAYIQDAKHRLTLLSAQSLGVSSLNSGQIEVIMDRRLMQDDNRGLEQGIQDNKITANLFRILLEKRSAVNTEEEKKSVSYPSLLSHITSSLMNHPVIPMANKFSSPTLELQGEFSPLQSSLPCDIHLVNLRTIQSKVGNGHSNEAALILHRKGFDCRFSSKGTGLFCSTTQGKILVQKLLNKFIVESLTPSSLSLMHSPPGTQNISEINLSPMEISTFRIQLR
UniProt P61244, sequence (whole entry, looked up): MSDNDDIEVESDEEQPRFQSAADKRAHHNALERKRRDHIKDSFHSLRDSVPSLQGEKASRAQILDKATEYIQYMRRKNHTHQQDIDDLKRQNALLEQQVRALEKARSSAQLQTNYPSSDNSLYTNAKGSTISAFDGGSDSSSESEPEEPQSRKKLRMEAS
UniProt Q9HBA0, sequence (whole entry, unmodified, looked up): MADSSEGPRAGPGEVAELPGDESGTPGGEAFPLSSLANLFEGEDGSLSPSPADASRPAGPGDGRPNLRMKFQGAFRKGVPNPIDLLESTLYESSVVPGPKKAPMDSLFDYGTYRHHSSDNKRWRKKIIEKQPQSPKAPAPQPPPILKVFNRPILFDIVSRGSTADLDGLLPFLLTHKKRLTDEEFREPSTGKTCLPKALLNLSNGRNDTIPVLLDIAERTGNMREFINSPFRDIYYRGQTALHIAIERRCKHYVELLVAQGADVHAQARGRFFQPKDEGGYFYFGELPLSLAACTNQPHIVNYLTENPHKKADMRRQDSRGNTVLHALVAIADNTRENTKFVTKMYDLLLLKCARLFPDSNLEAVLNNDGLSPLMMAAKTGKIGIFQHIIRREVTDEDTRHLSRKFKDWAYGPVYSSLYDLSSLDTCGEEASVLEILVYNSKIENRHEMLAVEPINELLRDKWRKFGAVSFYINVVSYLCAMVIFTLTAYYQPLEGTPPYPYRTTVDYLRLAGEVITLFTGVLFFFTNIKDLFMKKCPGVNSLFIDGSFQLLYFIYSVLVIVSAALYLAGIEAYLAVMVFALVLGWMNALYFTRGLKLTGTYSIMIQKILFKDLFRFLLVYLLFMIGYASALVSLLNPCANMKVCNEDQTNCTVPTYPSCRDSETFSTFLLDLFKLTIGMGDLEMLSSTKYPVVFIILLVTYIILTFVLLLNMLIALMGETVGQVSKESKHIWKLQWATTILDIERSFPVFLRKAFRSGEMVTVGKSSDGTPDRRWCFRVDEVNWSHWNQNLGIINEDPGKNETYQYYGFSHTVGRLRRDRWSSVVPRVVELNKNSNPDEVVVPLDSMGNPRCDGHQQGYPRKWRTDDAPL

`CC[C@H](C)[C@@H]1NC(=O)[C@H](Cc2ccccc2)NC(=O)[C@H](C)NC(=O)[C@@H](NC(=O)[C@@H](NC(=O)[C@H](CO)NC(=O)[C@@H](N)Cc2ccc(O)cc2)[C@@H](C)O)CSC(=O)[C@H](CCSC)NC1=O` has an IC50 of 0.613 nM (accessory gene regulator protein C (Staphylococcus aureus, UniProt O33587)).
For `CC[C@H](C)[C@H](NC(=O)[C@H](CCC(=O)O)NC(=O)[C@H](C)NC(=O)[C@H](CCCCN)NC(=O)[C@H](CC(C)C)NC(=O)[C@@H](NC(=O)[C@H](CCC(=O)O)NC(=O)[C@H](C)NC(=O)[C@H](CCC(=O)O)NC(=O)[C@H](CC(=O)O)NC(=O)[C@H](C)NC(C)=O)C(C)C)C(=O)N[C@H]1CSCc2cccc(c2)CSC[C@@H](C(=O)N[C@@H](CCC(N)=O)C(=O)N[C@H](C(=O)N[C@@H](CCC(N)=O)C(=O)N[C@@H](CCC(=O)O)C(=O)N[C@@H](CCC(=O)O)C(=O)N[C@@H](CC(=O)O)C(=O)N2CCC[C@H]2C(=O)N[C@@H](CC(N)=O)C(=O)NCCC(=O)N[C@@H](CCCCNC(=O)CCCC[C@@H]2SC[C@@H]3NC(=O)N[C@@H]32)C(N)=O)C(C)C)NC(=O)[C@H](C(C)C)NC(=O)[C@H](C)NC(=O)[C@H](CCCCN)NC1=O`, the IC50 was 2250 ± 1930 nM (Protein max, homodimer bound to E-box (MAX, Homo sapiens, UniProt P61244); DNA binding, EMSA; with: DNA 40 nM).
With `CC(C)=CCCC1(C)C=Cc2c(ccc3cc(-c4cc(O)cc(O)c4CC=C(C)C)oc23)O1` (stereo not drawn) the IC50 was less than 1000 nM (Beta-secretase 1 (BACE1, Homo sapiens, UniProt P56817); enzyme activity, inhibitor, FRET).
With `O=C(CS)NCCCCCNC(=O)c1ccccc1` the IC50 was 18800 nM (HDAC2; enzyme activity, inhibitor).
With `N#Cc1c(C(F)(F)F)cc(-c2ccc(Cl)cc2)nc1SCC(=O)Nc1ccccn1` the IC50 was < 500 nM and 421 nM (TAAR1 (Homo sapiens, UniProt Q96RJ0)).
The IC50 of `N[C@H](C(=O)N1CCCC1)C1CCN(c2nccc3c(-c4ncc(Cl)cc4Cl)cccc23)CC1` is reported as 42.7 nM (PADI4 (Homo sapiens, UniProt Q9UM07); enzyme activity, fluorescence quenching; with: Ca2+ 0.4 mM).
`COc1ccc(-c2ccc(OC)c(NC(=O)[C@H](C)CS)c2)nn1` has an IC50 of 56 nM (VIM-2 (Escherichia coli, UniProt Q5U7L7); enzyme activity, inhibitor, fluorescence; with preincubation).
`CCC(C)SSc1ncc[nH]1` (stereo not drawn) has an IC50 of greater than 60000 nM (Genome polyprotein, 3C protease (Human enterovirus 71, UniProt B9VUU3); protease activity, inhibitor, FRET; Enterovirus A71; DTT 4 mM).
`O=C1NC(=O)C(=Cc2ccc(-c3ccc(Br)cc3)o2)S1` gave an IC50 of 2260 nM (BRAF (Homo sapiens, UniProt P15056, V600E); enzyme activity, inhibitor, ELISA).
`CC(C)C[C@H](NC(=O)[C@H](CO)NC(=O)[C@H](Cc1ccc(O)cc1)NC(=O)CNC(=O)[C@H](CCCNC(=N)N)NC(=O)[C@H](Cc1ccc(O)cc1)NC(=O)[C@H](CC(N)=O)NC(=O)[C@H](CC(=O)O)NC(=O)[C@@H](N)CC(C)C)C(=O)NCC(=O)N[C@@H](CC(N)=O)C(N)=O` gave an IC50 of greater than 50000 nM (MHC class II I-A g7 (Mus musculus, UniProt P04228+Q31135); peptide binding, competitor, competition ELISA; at least 24 h, pH 7.0, room temperature, with: biotinylated HEL 10-23 200 nM).
`CC(Cc1ccccc1Sc1ccccc1)N(C)C` (stereo not drawn) has an IC50 of 615 nM (SLC6A2 (Homo sapiens, UniProt P23975); transporter uptake, inhibitor, radiometric).
For `O=C(O)c1ccc(Br)cn1`, the IC50 was 145000 ± 4500 nM (4-diphosphocytidyl-2-C-methyl-D-erythritol kinase (ispE, Klebsiella pneumoniae subsp. pneumoniae, UniProt A6TAP2); enzyme activity, PK/LDH coupled spectrophotometric).
With `O=C(NCCN1CCC2(CC1)C(=O)NCN2Cc1ccccn1)c1ccc2ccccc2c1` the IC50 was 80 nM (Phospholipase D2 (Homo sapiens, UniProt O14939); enzyme activity, inhibitor).
With `O=C(CCCCCCC(=O)Nc1ccccc1N=Nc1ccccc1)NO` the IC50 was 185 ± 42 nM (HDAC2; enzyme activity, inhibitor; cis isomer, irradiated).
`CC(=O)OCc1cc(-c2nc3ccccc3n(-c3ccc([N+](=O)[O-])cc3[N+](=O)[O-])c2=O)nn1-c1ccccc1` has an IC50 of 160 ± 7000 nM (gyrB (Escherichia coli, UniProt P0AES6); enzyme activity, inhibitor).
With `COC(=O)C=CCCC(NC(=O)c1ccncc1C(=O)O)C(=O)NC(C(=O)N1CC(=O)CC1C(=O)NC(C(=O)NC(C(N)=O)C1CCCCC1)C1CCCCC1)C(C)(C)C` (stereo not drawn) the IC50 was 19 ± 0.6 nM (Coagulation factor XIII A chain (Crab-eating macaque, UniProt A0A7N9D9X7); transamidation activity, inhibitor; cynomolgus enzyme, with: dansylcadaverine into N,N-dimethylcasein).
With `C[N+]1(C)CCN(c2nnnc3c2sc2nc(N4CCOCC4)c4c(c23)CCCC4)CC1` the IC50 was 9600 nM (Beta-glucuronidase (uidA, Escherichia coli, UniProt P05804); enzyme activity, inhibitor, absorbance; pH 7.5).
`Cc1c(C(=O)Nc2cccc(C(F)(F)F)c2)cc(-c2ccccc2)n1CCCN1CCOCC1` has an IC50 of 499 nM (TRPV4 (Homo sapiens, UniProt Q9HBA0, D546A); calcium signal).
For `CCCCCCCCCCCCCCCc1ccc(C(Br)P(=O)(O)O)cc1` (racemic), the IC50 was 10100 nM (Autotaxin (ENPP2, Homo sapiens, UniProt Q13822); enzyme activity, inhibitor; with: FS-3 1 µM).
`NCP(=O)(O)O` gave an IC50 of 700000 ± 23000 nM (Urease subunit alpha (Sporosarcina pasteurii, UniProt P41020); enzyme activity, inhibitor, indophenol colorimetric; 20 min, pH 7.0, 37 °C, with: 50 mM urea).
For `CC[C@H](C)[C@H](NC(=O)[C@@H]1CSSC[C@H](NC(=O)[C@H](Cc2ccc(O)cc2)NC(=O)CNC(C)=O)C(=O)N[C@@H](CO)C(=O)N[C@@H](CCCNC(=N)N)C(=O)N[C@@H](CO)C(=O)N[C@@H](Cc2ccc(O)cc2)C(=O)N2CCC[C@H]2C(=O)N2CCC[C@H]2C(=O)N[C@@H](C(C)C)C(=O)N1)C(=O)N1CCC[C@H]1C(=O)N[C@@H](CC(=O)O)C(=O)O`, the IC50 was 624 nM (Mannan-binding lectin serine protease 2 (Homo sapiens, UniProt O00187); C3 deposition, inhibitor, ELISA; 100-fold diluted human serum; 30 min preincubation).
`NC[C@@H]1[C@@H](O)[C@@H](O)[C@H]2[C@@H](O)CCN21` has an IC50 of greater than 200000 nM (Alpha-mannosidase 2 (Homo sapiens, UniProt Q16706); enzyme activity, inhibitor, 4-MU fluorogenic; with: Man-α-4MU 5 mM).
`CC[C@H](C)[C@H](N)C(=O)N[C@@H](CO)C(=O)N[C@@H](CCC(N)=O)C(=O)N[C@H](C(=O)N[C@@H](CC(N)=O)C(=O)N[C@@H](CCC(=O)O)C(=O)N[C@@H](CCCCN)C(=O)N[C@H](C(=O)N[C@@H](CC(N)=O)C(=O)N[C@@H](CCC(N)=O)C(=O)N[C@@H](CO)C(=O)N[C@@H](CC(C)C)C(=O)N[C@@H](C)C(=O)N[C@@H](Cc1ccccc1)C(=O)N[C@H](C(=O)N[C@@H](CCCNC(=N)N)C(=O)N[C@@H](CCCCN)C(=O)N[C@@H](CO)C(=O)N[C@@H](CC(=O)O)C(=O)N[C@@H](CCC(=O)O)C(=O)N(CCOC)CC(=O)N(CCOC)CC(=O)N(CCOC)CC(N)=O)[C@@H](C)CC)[C@@H](C)CC)C(C)C` has an IC50 of greater than 200000 nM (hRSV fusion protein 5-helix bundle; binding, fluorescence polarization; with: Fl-C35 tracer 5 nM).
The IC50 of `CC(C)[C@H](NC(=O)c1ccc(CNc2nc3c(c(=O)[nH]2)CCC3)cc1)C(=O)NC1CNC1` is reported as 74 nM (Collagenase 3 (MMP13, Homo sapiens, UniProt P45452); enzyme activity, inhibitor; formic acid salt, with: fTHP-15(FAM) substrate).
The IC50 of `NS(=O)(=O)c1ccc(NC(=O)c2ccccc2SSc2ccccc2C(=O)Nc2ccc(S(N)(=O)=O)cc2)cc1` is reported as 191 nM (Gag-Pol polyprotein, integrase core 50-213 (gag-pol, Human immunodeficiency virus type 1 group M subtype B, UniProt P04585); disintegration activity; integrase catalytic core, 10 mM Mn2+).
The IC50 of `CCn1c(-c2ccc(OC)cc2)c(-c2ccc(OC)cc2)n(CC)c1=[Se+][Au-][P+](CC)(CC)CC.Cl` is reported as 4750 nM (thioredoxin reductase (Acinetobacter baumannii, UniProt A0A0G4QN87); enzyme activity, inhibitor; with: DTNB).
`Cc1ccc(NC(=O)CCc2cccc(NC3=CC(=O)N(C4CCC(=O)NC4=O)C3=O)c2)cc1Cl` (stereo not drawn) has an IC50 of 550 nM (Protein cereblon (CRBN, Homo sapiens, UniProt Q96SW2); ligand displacement, TR-FRET).
`CCc1cccc2c(C(=O)NC3CCN(C(=O)C(C)C)CC3)c[nH]c12` gave an IC50 of 28500 nM (Genome polyprotein, 3C protease (rhinovirus B14, UniProt P03303); 3C protease activity, SAMDI-MS; human rhinovirus).
With `Brc1c(Br)c(Br)c2[nH]nnc2c1Br` the IC50 was 38100 ± 360 nM (mRNA cap guanine-N(7) methyltransferase, with RAM (RNMT, Homo sapiens, UniProt O43148); N7-methyltransferase activity, inhibitor, Py-FLINT; RNMT-RAM complex, with: SAM 20 µM).
The IC50 of `CC[C@H](C)[C@H](NC(=O)[C@@H]1CCCN1C(=O)CNC(=O)[C@H](CC(N)=O)NC(=O)CNC(=O)[C@H](CC(=O)O)NC(=O)[C@@H]1CCC(=O)O[C@H](C)[C@H](NC(=O)[C@@H](NC(=O)[C@H](Cc2ccccc2)NC(=O)[C@@H](NC(=O)[C@H](CCCCN)NC(=O)CNC(=O)[C@H](CC(=O)O)NC(=O)CNC(=O)[C@@H](NC(=O)CNC(=O)[C@H](CC(=O)O)NC(=O)[C@@H]2CCC(=O)O[C@H](C)[C@H](NC(=O)[C@@H](NC(=O)[C@H](CC(C)C)NC(=O)[C@H](CCCCN)NC(=O)[C@H](Cc3ccccc3)NC(=O)[C@H](CC(=O)O)NC(=O)CNC(=O)[C@H](CCCCN)NC(=O)[C@H](CC(C)C)NC(=O)[C@H](CO)NC(=O)CN)C(C)C)C(=O)N[C@@H](CCSC)C(=O)N[C@@H](CCCCN)C(=O)N[C@@H](C(C)C)C(=O)N3CCC[C@H]3C(=O)N2)C(C)C)C(C)C)[C@@H](C)O)C(=O)N[C@@H](C)C(=O)N[C@@H](CC(C)C)C(=O)NCC(=O)N1)C(=O)N[C@@H](Cc1ccc(O)cc1)C(=O)N[C@@H]1C(=O)N[C@@H]2C(=O)N[C@@H](CCC(N)=O)C(=O)N[C@@H](C)C(=O)N[C@@H](C(C)C)C(=O)NCC(=O)N[C@@H](CCC(=O)O[C@@H]2C)C(=O)N[C@H](C(=O)NCC(=O)NCC(=O)N[C@@H](CC(=O)O)C(=O)N[C@@H](CC(C)C)C(=O)N2CCC[C@H]2C(=O)N2CCC[C@H]2C(=O)N[C@@H](CC(C)C)C(=O)N[C@@H](Cc2ccccc2)C(=O)O)CCC(=O)O[C@@H]1C` is reported as 310 nM (Neutrophil elastase (ELANE, Homo sapiens, UniProt P08246); enzyme activity, inhibitor).

A few entries again:
The IC50 of `CC(C)[C@H](NC(=O)c1ccc(CNc2nc3c(c(=O)[nH]2)CCC3)cc1)C(=O)NC1CNC1` is reported as 74 nM (Collagenase 3 (MMP13, Homo sapiens, UniProt P45452); enzyme activity, inhibitor; formic acid salt, with: fTHP-15(FAM) substrate).
With `O=C(CS)NCCCCCNC(=O)c1ccccc1` the IC50 was 18800 nM (HDAC2; enzyme activity, inhibitor).
